Results of several laboratories.
A part holds a random share of what one study measured. Substitutions count along the parent as printed.

Set 1
Target: Fragile X messenger ribonucleoprotein 1, C-terminal low-complexity region (Fmr1, Mus musculus, UniProt P35922)
Technique: RNA Bind-n-Seq
Form: RNA
Medium: in vitro
Concentration: 200 nM
Notes: whole 134-nt RNA, ends assumed
With: 150 mM LiCl
Relative to: input library
Reading: higher = stronger binding
Each molecule: 7-deaza-guanosine replaces G
All sequences stand within: GGGAGUUCUACAGUCCGACGAUC … UGGAAUUCUCGGGUGUCAAGG
For `CCUGUGCUACACAUCGUAUGUACCGAAUCGGCCCCCCCGGGCCCCCCCGGGGCCCCCCCGGAAAGUAUUAUGUUACGCCGUUCGGAUCUG`, the log2 enrichment was 0.276.
The log2 enrichment of `AGUCCUGUGCUACACAUCGUAUGUACCGAAUCAAAUUUUUAAACCCCCAAACCCAAAAAAGUAUUAUGUUACGCCGUUCGGAUCUGCACU` is reported as 1.03.
`UCCUCAAGUCCUGUGCUACACAUCGUAUGUACCGAAUCGGUGGUGGUGGGGAAAGUAUUAUGUUACGCCGUUCGGAUCUGCACUUCCAGC` gave a log2 enrichment of 0.398.
`UCCUGUGCUACACAUCGUAUGUACCGAAUCGGAAAAAAGGGAAAAAAGGGAAAAAAGGGAAAGUAUUAUGUUACGCCGUUCGGAUCUGCA` has a log2 enrichment of -0.153.
With `UGGGAGGUGGAUUUUGUUUAUUUUUUUAGCUCAUUUCCAGGGGUGGCAAUUUUUUUUUAAUAUGUGUCAUGAAUAAAGUUGUUUUUGAAA` the log2 enrichment was -0.643.
`AGUCCUGUGCUACACAUCGUAUGUACCGAAUCGGGUUUUUUUGGGAAAAAGGGUGGGAAAGUAUUAUGUUACGCCGUUCGGAUCUGCACU` has a log2 enrichment of -2.54.
`CAAGUCCUGUGCUACACAUCGUAUGUACCGAAUCGGAAAGGAAAGGAAAAAAAGGAAAGUAUUAUGUUACGCCGUUCGGAUCUGCACUUC` has a log2 enrichment of -0.347.
For `UGGGCUGGAUGGCUCAGUUCCCCCAGACCUGGACUGGAAGGGCCAGCCACCUGCACCUCCUAAAAAGGGACUGCUGCAGAGACUCUUCAG`, the log2 enrichment was -0.468.

Set 2
Target: CCNE2, cyclin fold, Cln2 fusion (human)
Technique: yeast growth competition, sequencing
Medium: yeast
Notes: strong parent motif
Relative to: not given
Reading: higher = stronger binding
Starting sequence: viral docking peptide; KKAKRRLFTISDS
For `KKAKRRLFTIADS [S11A]`, “normalised enrichment score” read 2.13.
Under “normalised enrichment score”, `KKAKARAFTISDS [R5A L7A]` is recorded as 0.113.
Under “normalised enrichment score”, `KKAKKRLLTISDS [R5K F8L]` is recorded as 0.689.
Under “normalised enrichment score”, `KKAKRRLFTASDS [I10A]` is recorded as 3.39.

Set 3
Target: Max dimerization protein 1, bHLH-zipper, MAX partner unstated (MXD1, Homo sapiens, UniProt Q05195, residues 56-136)
Technique: protein-binding microarray
Form: double-stranded DNA, one strand shown
Medium: in vitro
Concentration: not given
Notes: k-mer, scored over probes, only values ≥0.25
Reading: higher = stronger binding
Target sequence (chain): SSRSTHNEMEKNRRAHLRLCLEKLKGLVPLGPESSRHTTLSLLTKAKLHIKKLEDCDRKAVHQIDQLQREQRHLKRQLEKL
With `ACTGCATG` the E-score was 0.263.
`AGGGGTGG` has an E-score of 0.263.
`CCATGCAA` gave an E-score of 0.331.
With `AAGGGGGC` the E-score was 0.293.
`CATGGACA` has an E-score of 0.279.
`CGCCCGCC` gave an E-score of 0.285.
The E-score of `CCCTCGCA` is reported as 0.261.
`CATGCGAG` has an E-score of 0.365.

Set 4
Target: inorganic phosphate, free oxyanion
Technique: microfluidic competitive inhibition
Medium: in vitro, cell-free expressed
Concentration: not given
Notes: derived from inhibition constants, unchanged parent 615000 nM
Reading: lower = stronger binding
Starting sequence: PafA, mature enzyme, eGFP fusion (Elizabethkingia meningoseptica, UniProt Q9KJX5); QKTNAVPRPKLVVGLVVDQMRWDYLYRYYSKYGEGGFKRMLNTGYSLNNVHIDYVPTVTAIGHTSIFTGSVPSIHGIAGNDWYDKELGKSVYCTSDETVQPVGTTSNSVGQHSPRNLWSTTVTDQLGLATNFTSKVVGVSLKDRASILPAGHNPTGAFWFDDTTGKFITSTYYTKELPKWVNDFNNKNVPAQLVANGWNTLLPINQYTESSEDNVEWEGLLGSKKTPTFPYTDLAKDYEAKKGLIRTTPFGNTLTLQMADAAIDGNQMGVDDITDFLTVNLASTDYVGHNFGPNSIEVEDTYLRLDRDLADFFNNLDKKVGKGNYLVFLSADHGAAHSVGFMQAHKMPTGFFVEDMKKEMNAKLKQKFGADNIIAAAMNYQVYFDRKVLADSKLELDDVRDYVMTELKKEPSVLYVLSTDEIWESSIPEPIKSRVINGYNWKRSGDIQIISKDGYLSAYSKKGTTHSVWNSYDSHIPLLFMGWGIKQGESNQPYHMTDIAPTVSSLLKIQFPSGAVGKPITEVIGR
`T121G`: “phosphate dissociation constant” 460 µM.
`M378V`: “phosphate dissociation constant” 620 µM.
`A282G` — result for “phosphate dissociation constant”: 1010 µM.
`F67G` — result for “phosphate dissociation constant”: 346 µM.
`V435A`: “phosphate dissociation constant” 678 µM.
For `D213G`, “phosphate dissociation constant” read 164 µM.
`K365V`: “phosphate dissociation constant” 738 µM.
Under “phosphate dissociation constant”, `L25G` is recorded as 537 µM.
Under “phosphate dissociation constant”, `T226V` is recorded as 675 µM.
Under “phosphate dissociation constant”, `D453G` is recorded as 568 µM.
For `N4G`, “phosphate dissociation constant” read 483 µM.
`T64G`: “phosphate dissociation constant” 826 µM.
`V99G` — result for “phosphate dissociation constant”: 742 µM.
Under “phosphate dissociation constant”, `H152V` is recorded as 499 µM.
`I509V` — result for “phosphate dissociation constant”: 606 µM.
For `Q381G`, “phosphate dissociation constant” read 561 µM.
For `M258G`, “phosphate dissociation constant” read 485 µM.
Under “phosphate dissociation constant”, `G222A` is recorded as 421 µM.

Repeated from above (set 3):
With `ACTGCATG` the E-score was 0.263.
`CGCCCGCC` gave an E-score of 0.285.
The E-score of `CCCTCGCA` is reported as 0.261.
`AGGGGTGG` has an E-score of 0.263.
`CATGCGAG` has an E-score of 0.365.
`CATGGACA` has an E-score of 0.279.
